Measurements from different studies.
Numbered parts are unrelated; each lists some results of a single study.

Set 1 — technique: protein-binding microarray; molecule type: double-stranded DNA, one strand shown; matrix: in vitro; tested at: 2540 nM top; notes: 60-bp whole probe; together with: salmon DNA 0.4 mg/ml; reference: random background probes; reading: higher = stronger binding; shared flanks, not repeated: GCCTAGCAC … GTCTTGATTCGCTTGACGCTGCTG
Target: Interferon regulatory factor 3, full length, phosphomimetic (IRF3, Homo sapiens, UniProt Q14653, residues 1-427, S386D/S396D/S398D/S402D/T404D/S405D)
Sequence of UniProt Q14653 (whole entry, unmodified, looked up): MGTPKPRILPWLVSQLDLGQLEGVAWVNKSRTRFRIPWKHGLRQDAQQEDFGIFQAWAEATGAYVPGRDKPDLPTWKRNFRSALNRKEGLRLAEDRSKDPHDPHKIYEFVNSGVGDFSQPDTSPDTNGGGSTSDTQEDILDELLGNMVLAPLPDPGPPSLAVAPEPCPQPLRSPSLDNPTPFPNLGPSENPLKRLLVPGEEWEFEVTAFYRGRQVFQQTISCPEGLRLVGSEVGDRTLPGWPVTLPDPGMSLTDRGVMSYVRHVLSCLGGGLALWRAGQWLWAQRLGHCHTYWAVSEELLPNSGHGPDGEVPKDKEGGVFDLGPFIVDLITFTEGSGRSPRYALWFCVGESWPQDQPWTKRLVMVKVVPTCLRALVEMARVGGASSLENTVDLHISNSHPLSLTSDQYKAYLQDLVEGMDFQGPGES
Oligonucleotide | fitted relative affinity [z-score]
TTAGGTTTCCTACTGCTTGAGTGCTAG | 4.91
GACGGACTGGGGACTGGGGCCGTGCTA | -1.12
GACGGTTTCCTTTTCATGACGTGCTAG | 10.8
TTAGGTTACGGGTATCGGTTAGTGCTA | 0.772
TTAGAACTGGGGTATCGATTCGTGCTA | 0.0483

Set 2 — technique: aptamer microarray, sandwich; molecule type: DNA with 2'F-ANA; matrix: in vitro; tested at: 200 nM; together with: Cy3 exosite-II aptamer, 400 nM; reading: higher = stronger binding; oligonucleotide: GGTTGGTGTGGTTGG
Target: Prothrombin, mature alpha-thrombin (F2, Homo sapiens, UniProt P00734)
Notes: whole 15-mer aptamer, many near background
Modification | mean fluorescence intensity [a.u.]
2'F-ANA at 2 4 5 6 7 13 | 54.4
2'F-ANA at 1 2 3 4 11 15 | 162
2'F-ANA at 2 7 10 12 14 15 | 89.3
2'F-ANA at 1 2 4 5 6 12 13 15 | 70.8
2'F-ANA at 4 5 7 8 9 10 11 13 14 | 67.3
2'F-ANA at 5 6 7 10 13 | 60.2

Set 3 — technique: protein binding microarray; molecule type: double-stranded DNA, one strand shown; matrix: in vitro; tested at: not given; reference: not given; reading: higher = stronger binding
Target: Histone acetyltransferase KAT6A, winged helix 2, GST fusion (KAT6A, Homo sapiens, UniProt Q92794, residues 85-181)
Notes: 8-mer, flanks averaged, mean of 2 arrays, mostly near background
Target sequence (chain): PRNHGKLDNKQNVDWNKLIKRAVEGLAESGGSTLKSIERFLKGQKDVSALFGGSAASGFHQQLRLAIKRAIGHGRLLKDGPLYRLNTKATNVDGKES
Oligonucleotide | E-score
AATCCACT | -0.0225
ACCATAGA | -0.0343
CATGTGCA | -0.0996
GTTGTTCA | -0.12

Single results of other studies
Molecule | target | assay | test system | setting | how to read | measurement | value
PhoQ, residues 284 288 289 292 302 303 DDMDFR | PhoP, residues 12 14 15 18 19 SPWRL (Escherichia coli, UniProt P23836) | Sort-seq, measured: YFP reporter | E. coli | PhoQ-PhoP variant library, together with: 10 µM Mg2+ | reference: high Mg2+ state, higher = stronger signaling | fold induction | 0.675

For quick reference, copied from above (single results of other studies):
Molecule | target | assay | test system | setting | how to read | measurement | value
PhoQ, residues 284 288 289 292 302 303 DDMDFR | PhoP, residues 12 14 15 18 19 SPWRL (Escherichia coli, UniProt P23836) | Sort-seq, measured: YFP reporter | E. coli | PhoQ-PhoP variant library, together with: 10 µM Mg2+ | reference: high Mg2+ state, higher = stronger signaling | fold induction | 0.675
